# Measurements collected from several papers.
# “And” joins repeats or separate records; there may be more than shown. Numbers after ± are the reported error.
Structure (SMILES),test,test system,conditions,scale,measurement,result
OC1(C(F)(F)F)CCN(c2nc(Nc3ccnc(C(F)(F)F)c3)nc(-c3cccc(C(F)(F)F)n3)n2)C1 (centres unmarked),,"monkey, plasma","oral, 3 mg/kg",,Cmax,905 ± 161 ng/mL
Cc1nn(-c2nc3c(F)cc(F)cc3s2)c(O)c1C(c1ccc(C(F)(F)F)cc1)c1c(C)nn(-c2nc3c(F)cc(F)cc3s2)c1O,,"ICR mouse, plasma","oral, 50 mg/kg",,Tlast,24 h
COc1cccc(OC)c1-c1cc(C(=O)NC2(C(=O)O)C3CC4CC(C3)CC2C4)nn1-c1ccc(C(=O)N(C)CCOCCOCCN(C)C(=O)[C@H](CCCCNC(=O)[C@H](CC(C)C)NC(=O)C2OC2C(=O)O)NC(=O)CN2CCN(CC(=O)[O-])CCN(CC(=O)[O-])CCN(CC(=O)[O-])CC2)cc1C(C)C.[177Lu+3] (mixture of isomers),,"mouse, HT-29 xenograft","72 h post injection, biodistribution",reference: tumour over blood uptake,tumour-to-blood ratio,12.1
C=C(NC(=O)c1csc(-c2nc3c(cc2O)-c2nc(cs2)C(=O)NC(C(C)O)C(=O)NC(=C(C)OC)c2nc(cs2)C(=O)NC2c4nc(cs4)C(=O)NC(COC(=O)c4c5c6c(cccc6n4O)COC(=O)C(OC4CC(C)(O)C(N(C)C)C(C)O4)C2OC5)c2nc-3cs2)n1)C(N)=O (centres unmarked),,"ICR mice, Streptococcus pneumoniae ATCC 49169 infected, immunocompromised, blood","intravenous, 16 mg/kg twice daily",,AUC(0-t),0.861 µM·h
COc1cccc(OC)c1-c1cc(C(=O)NC2(C(=O)O)C3CC4CC(C3)CC2C4)nn1-c1ccc(C(=O)N(C)CCOCCN(C)C(=O)[C@H](CCCCNC(=O)[C@H](CC(C)C)NC(=O)C2OC2C(=O)O)NC(=O)CN2CCN(CC(=O)[O-])CCN(CC(=O)[O-])CCN(CC(=O)[O-])CC2)cc1C(C)C.[177Lu+3] (mixture of isomers),,"mouse, HT-29 xenograft, kidney",4 h post injection,,tissue uptake,21 %ID/g
CCC1(CC)CC(=O)N(C2c3cc(C(=O)NC4c5ccccc5CC4O)ccc3OC2(C)COC)C(=N)N1 (centres unmarked),,human plasma,,,unbound fraction,0.12
O=C(c1ccc(-c2ccccc2)cc1)N1CCCCC1,metabolic stability,"human, liver microsomes","2 µM, 25 min, pH 7.4",,compound remaining,87%
C=C[C@]1(C)C[C@@H](OC(=O)CSc2ccc(NC(=O)c3ccco3)cc2)[C@]2(C)[C@H](C)CC[C@]3(CCC(=O)[C@H]32)[C@@H](C)[C@@H]1O,,"M. gallisepticum-infected chickens, plasma","intramuscular, 5 mg/kg single dose",,AUC(0-24 h),1490 ng·h/mL
Cc1ncsc1-c1ccc(CNC(=O)[C@@H]2C[C@@H](O)CN2C(=O)[C@@H](NC(=O)COCC(C)(COCCOCCOCCNC(=O)C[C@@H]2N=C(c3ccc(Cl)cc3)c3c(sc(C)c3C)-n3c(C)nnc32)COCCOCCOCCNC(=O)C[C@@H]2N=C(c3ccc(Cl)cc3)c3c(sc(C)c3C)-n3c(C)nnc32)C(C)(C)C)cc1,,"male C57BL/6 mice, plasma","subcutaneous, 5 mg/kg, 15 min, sample diluted 20-fold",,plasma concentration,683 ng/mL
O=C(c1ccc([C@H]2[C@@H](F)[C@@H](F)C[C@@H](F)[C@H]2F)cc1)N1CCC(F)CC1,liver microsome stability,rat liver microsomes,1 µM,,hepatic clearance,35 mL/min/kg
O=C(Nc1cnccc1-c1ccc([18F])cc1)c1ccnc(NC(=O)C2CC2)c1,ex vivo gamma counting,"GSK-3β transgenic mice, late-stage, skin","intravenous, 1.26 MBq/animal, 120 min, mean, no P-gp inhibitor",,SUV,0.13
OC[C@H]1O[C@H](Sc2ccc(Cl)c(Cl)c2)[C@H](O)[C@@H](n2cc(-c3cc(F)c(F)c(F)c3)nn2)[C@H]1O,,"rat, Sprague-Dawley, plasma","1.0 mg/kg, free drug solution",,t1/2,0.333 h
CC(C)OC(=O)[C@H](CO)NCc1cc(Cl)c(OCc2cccc(-c3ccccc3)c2Br)cc1OCc1cccnc1,,"hPD-L1 MC-38 tumour, humanised hPD-1 C57BL/6 mouse","oral, 2.5 mg/kg × 21, day 1, baseline",,body weight,19.8 ± 1 g
C=CC(=O)Nc1cc(Nc2nccc(-c3cn(C)c4ccccc34)n2)c(OC)cc1N(C)CCNC,storage stability,human plasma,"2 h, -80 °C, LQC level",,recovery,103%
O=S(=O)(O)c1cc(O)c(O)c(S(=O)(=O)O)c1,UV-vis spectroscopy,1 M H2SO4 in water,"pH 0, 0 wt %, no hydrotrope",,aqueous solubility,530 ± 10 mM
C=C1C[C@]2(C(=O)OC)C=C(C(=O)Nc3cccc(C(=O)Nc4ccc(Nc5nccc(-c6cccnc6)n5)c(C)c4)c3)C(=O)[C@H]1C2,,"Wistar rat, male, plasma","10 µM, 5 min",,compound remaining,29.4% and 27.2%
O=C(NCc1cccc(Cl)c1)c1ccc([C@H]2[C@@H](F)[C@@H](F)C[C@@H](F)[C@H]2F)cc1,hepatocyte stability,cryopreserved human hepatocytes,1 µM,,hepatic clearance,12 mL/min/kg
O=S1(=O)CC2CCCCC2CS1 (centres unmarked),"phase solubility, NMR",water,"25 °C, with: hydroxypropyl-β-cyclodextrin 571 mM",,solubility,64.8 mM
COC1C=COC2(C)Oc3c(C)c(O)c4c(c3C2=O)C2=NC3(CCN(CC(C)C)CC3)NC2=C(NC(=O)C(C)=CC=CC(C)C(O)C(C)C(O)C(C)C(OC(=O)c2cccnc2)C1C)C4=O (centres unmarked),,"CD-1 mouse female, plasma","oral, 10 mg/kg",,fAUC/MIC ratio,49.9
CN1CCC(c2ccc(-c3ccc([C@H]4[C@@H](F)[C@@H](F)C[C@@H](F)[C@H]4F)cc3)cn2)CC1,liver microsome stability,dog liver microsomes,1 µM,,hepatic clearance,28 mL/min/kg
C/C(N)=N/C(=N\S(=O)(=O)c1ccc(C(F)(F)F)cc1)N1C[C@H](c2ccccc2)C(c2ccc(Cl)cc2)=N1,,"beagle dog, plasma","oral, 6 mg/kg",,AUC(0-inf),12400 ng·h/mL
CC(=O)N([O-])CCCCCNC(=O)CCC(=O)N([O-])CCCCCNC(=O)CCC(=O)N([O-])CCCCCN.[89Zr+4],radio-TLC,aqueous buffer,"1 d, pH 7.2, 37 °C, 89Zr-labelled complex, with: FeCl3 10-fold excess",,intact complex,92.2 ± 1.5%
O=C(Nc1cnccc1-c1ccc([18F])nc1)c1ccnc(NC(=O)C2CC2)c1,,"FVB/NJ mice (both sexes), urine","intravenous, dose not given, 120 min",,SUV,12.9
CCN(CC)c1ccc2c(c1)O[B-]1(c3ccccc3)OC(=O)C(c3ccccc3)=N[N+]1=C2C (centres unmarked),,toluene,,,fluorescence emission maximum,510 nm
O=C1c2sc(-c3ccc(N4CCC(CO)CC4)nc3F)nc2CCN1c1cccnc1,LC-MS,human hepatocytes,"5 µM, 60 min",,parent share of total peak area,54%
COc1cccc(OC)c1-c1cc(C(=O)NC2(C(=O)O)C3CC4CC(C3)CC2C4)nn1-c1ccc(C(=O)N(C)CCCN(C)CCCN(C)C(=O)[C@H](CCCCNC(=O)[C@H](CC(C)C)NC(=O)C2OC2C(=O)O)NC(=O)CN2CCN(CC(=O)[O-])CCN(CC(=O)[O-])CCN(CC(=O)[O-])CC2)cc1C(C)C.[177Lu+3] (mixture of isomers),,"mouse, HT-29 xenograft","72 h post injection, biodistribution",reference: tumour over blood uptake,tumour-to-blood ratio,24
O=C(NCCO)c1ccc([C@H]2[C@@H](F)[C@@H](F)C[C@@H](F)[C@H]2F)cc1,liver microsome stability,mouse liver microsomes,1 µM,,hepatic clearance,14 mL/min/kg
CC(C)(C)NCC(SS(=O)(=O)O)c1ccccc1 (centres unmarked),,"Swiss Webster mice, Schistosoma mansoni-infected","400 mg/kg single dose on day 42 post-infection, perfusion day 56 post-infection",,body weight,36.1 g
Cc1ccc(CN2C(=O)/C(=N\c3ccc(Cl)cc3Br)c3ccccc32)cc1,,"mouse, blood",200 mg/kg,,Mon%,2.37 ± 0.12%
O=C(N1CCCCC1)C12CC(c3ccccc3)(C1)C2(Br)Br,metabolic stability,"human, liver microsomes","2 µM, 7 min, pH 7.4",,compound remaining,88%
Cc1cc(C)n(CCN(CCN)CCCCCCNC(=O)[C@@H](N)Cc2c[nH]cn2)n1.[99Tc+].[C-]#[O+].[C-]#[O+].[C-]#[O+],,BALB/c nude mice MCF7 xenograft,"intravenous, 4 h",,excretion,52.5 ± 2.48 % injected activity
COCC1CN(C2CCN(c3cc(OC)c(Nc4ncc(Br)c(Nc5ccc6c(c5P(C)(C)=O)OCCO6)n4)cc3C)CC2)C1,,"EGFR-mutant NSCLC patients, plasma","oral, 60 mg single dose, geometric mean",,t1/2,34.5 h
C=CC(=O)N1CCCC(n2c(=O)c3ncccc3n(Cc3ccc(Oc4ccccc4)cc3)c2=O)C1 (centres unmarked),metabolic stability,"human, hepatocytes","1 µM, 2 h",,compound remaining,37.8%
CC(C)OCCOCc1ccc(OCC(O)CN(N=O)C(C)C)cc1 (centres unmarked),"mutation spectrum, duplex sequencing","NMRI mouse, liver",concentration not given,,C>T mutation fraction,increased
O=C(Nc1ccc([C@H]2[C@@H](F)[C@@H](F)C[C@@H](F)[C@H]2F)cc1)C1(N2CCOCC2)CC1,hepatocyte stability,cryopreserved mouse hepatocytes,1 µM,,hepatic clearance,42 mL/min/kg
COc1ccc2c(c1)O[B-]1(c3ccccc3)OC(=O)C(c3ccccc3)=N[N+]1=C2C (centres unmarked),,toluene,,,fluorescence emission maximum,501 nm
Fc1ccc(OCC2CN(Cc3cn4ccccc4n3)CCC2(F)F)cc1 (centres unmarked),equilibrium dialysis,human plasma,,,fu,0.0045
CC[C@H](C)[C@@H]1NC(=O)[C@H](Cc2ccc(O)cc2)NC(=O)CCCSC[C@@H](C(=O)N(CC(=O)N[C@@H](CC(C)C)C(=O)NCC(N)=O)Cc2ccc(F)cc2)NC(=O)[C@H](CC(N)=O)NC(=O)[C@H](CCC(N)=O)NC1=O,,human,"intranasal, 200 µg single dose",,AE leading to discontinuation,0%

# Some of these lines once more:
Structure (SMILES),test,test system,conditions,scale,measurement,result
C/C(N)=N/C(=N\S(=O)(=O)c1ccc(C(F)(F)F)cc1)N1C[C@H](c2ccccc2)C(c2ccc(Cl)cc2)=N1,,"beagle dog, plasma","oral, 6 mg/kg",,AUC(0-inf),12400 ng·h/mL
CC(=O)N([O-])CCCCCNC(=O)CCC(=O)N([O-])CCCCCNC(=O)CCC(=O)N([O-])CCCCCN.[89Zr+4],radio-TLC,aqueous buffer,"1 d, pH 7.2, 37 °C, 89Zr-labelled complex, with: FeCl3 10-fold excess",,intact complex,92.2 ± 1.5%
O=C(Nc1cnccc1-c1ccc([18F])nc1)c1ccnc(NC(=O)C2CC2)c1,,"FVB/NJ mice (both sexes), urine","intravenous, dose not given, 120 min",,SUV,12.9
CCN(CC)c1ccc2c(c1)O[B-]1(c3ccccc3)OC(=O)C(c3ccccc3)=N[N+]1=C2C (centres unmarked),,toluene,,,fluorescence emission maximum,510 nm
